Results pooled from the literature.
Compare with care: the assays were run in different laboratories. “And” joins repeats or separate records; there may be more than shown. ± marks the error that the study gave. In brackets after ≈: the same amount, converted by molar mass.
Sequence of UniProt P41143 (whole entry, looked up): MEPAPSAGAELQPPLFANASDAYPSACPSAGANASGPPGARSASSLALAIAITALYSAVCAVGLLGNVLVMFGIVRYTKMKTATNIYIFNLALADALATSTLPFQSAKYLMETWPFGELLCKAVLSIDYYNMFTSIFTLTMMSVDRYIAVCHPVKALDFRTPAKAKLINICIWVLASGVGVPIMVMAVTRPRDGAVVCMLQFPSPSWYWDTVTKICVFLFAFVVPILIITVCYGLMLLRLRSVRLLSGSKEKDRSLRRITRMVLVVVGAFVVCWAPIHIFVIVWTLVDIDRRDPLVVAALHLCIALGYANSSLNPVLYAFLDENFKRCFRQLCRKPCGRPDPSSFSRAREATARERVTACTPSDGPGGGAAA

The Ki of CC(C)C[C@H](NC(=O)[C@H](CO[C@@H]1O[C@H](CO)[C@@H](O)[C@H](O)[C@H]1O)NC(=O)[C@H](CCCCN)NC(=O)[C@H](CC(C)C)NC(=O)[C@H](C)NC(=O)[C@H](CCCCN)NC(=O)[C@H](CCC(=O)O)NC(=O)C(C)(C)NC(=O)[C@H](CC(C)C)NC(=O)[C@H](CC(N)=O)NC(=O)[C@@H]1CCCN1C(=O)[C@H](CC(C)C)NC(=O)[C@H](Cc1ccccc1)NC(=O)CNC(=O)[C@H](NC(=O)[C@@H](N)Cc1ccc(O)cc1)[C@H](C)O)C(N)=O is reported as 14 nM (OPRD1 (Homo sapiens, UniProt P41143); ligand displacement, radioligand; pH 7.5, cell membranes).
With CC(C)[C@H](NC(=O)[C@H](Cc1ccccc1)NC(=O)[C@H](Cc1ccccc1)NC(=O)[C@H](CC(=O)O)NC(=O)[C@H](CC(=O)O)NC(=O)CNC(=O)[C@H](CCCCN)NC(=O)[C@H](CCCCN)NC(=O)[C@@H](N)Cc1c[nH]cn1)C(=O)N[C@@H](Cc1ccc(O)cc1)C(=O)N[C@@H](C)C(=O)N[C@@H](CC(=O)O)C(=O)N[C@@H](Cc1ccc(O)cc1)C(=O)O the IC50 was 16700 nM (Zaire ebolavirus; wild type).
CC[C@H](C)[C@@H]1NC(=O)[C@H](CCCNC(=N)N)NC(=O)[C@H](CO)NC(=O)[C@H](CCC(=O)O)NC(=O)[C@H](CC(=O)O)NC(=O)CNC(=O)CNC(=O)[C@H]([C@@H](C)O)NC(=O)[C@H](Cc2ccccc2)NC(=O)[C@H](CO)NC(=O)[C@H]([C@@H](C)O)NC(=O)[C@H](C)NC(=O)[C@@H]2CSSC[C@@H](C(=O)N[C@@H](Cc3ccc(O)cc3)C(=O)N[C@@H](Cc3ccccc3)C(=O)N[C@H](C(=O)N[C@H](C(=O)NCC(=O)O)[C@@H](C)O)[C@@H](C)O)NC(=O)[C@H]([C@@H](C)O)NC(=O)[C@H](CSSC[C@H](NC(=O)[C@H](CCC(=O)O)NC(=O)[C@H](CO)NC(=O)[C@H](CCCCN)NC(=O)[C@H](Cc3ccc(O)cc3)NC(=O)[C@@H]3CCCN3C(=O)[C@H](Cc3ccccc3)NC(=O)[C@H](CCCCN)NC(=O)[C@H](CCCNC(=N)N)NC(=O)[C@H](CCCCN)NC(=O)[C@H](CCCCN)NC(=O)[C@H](Cc3ccc(O)cc3)NC(=O)[C@@H]3CCCN3C(=O)[C@@H](NC(=O)[C@H](CC(=O)O)NC(=O)[C@H](CCCCN)NC(=O)[C@H](CCCCN)NC(=O)[C@@H](NC(=O)[C@@H](NC(=O)[C@@H](N)CCC(=O)O)C(C)C)[C@@H](C)CC)[C@@H](C)O)C(=O)N[C@@H](CC(C)C)C(=O)N[C@@H](CCCCN)C(=O)N[C@@H](C)C(=O)N2)NC(=O)[C@H](CCCCN)NC(=O)[C@H](Cc2ccccc2)NC(=O)[C@H](Cc2ccccc2)NC(=O)CNC(=O)[C@@H]2CCCN2C(=O)[C@H](CCCCN)NC(=O)CNC(=O)[C@H](CCC(=O)O)NC(=O)[C@H](CCC(N)=O)NC1=O gave an elimination half-life of 4.5 h (ELISA; mouse, plasma; intravenous).
For CC[C@H](C)[C@H](NC(=O)[C@H](CO)NC(=O)[C@H](Cc1ccc(O)cc1)NC(=O)[C@H](CC(=O)O)NC(=O)[C@H](CO)NC(=O)[C@@H](NC(=O)[C@H](Cc1ccccc1)NC(=O)[C@@H](NC(=O)CNC(=O)[C@H](CCC(=O)O)NC(=O)[C@@H](C)NC(=O)[C@@H](N)Cc1ccc(O)cc1)[C@@H](C)O)[C@@H](C)CC)C(=O)N[C@@H](C)C(=O)N[C@@H](CCSC)C(=O)N[C@@H](CC(=O)O)C(=O)N[C@@H](CCCCN)C(=O)N[C@H](C(=O)N[C@@H](Cc1c[nH]cn1)C(=O)N[C@@H](CCC(N)=O)C(=O)N[C@@H](CCC(N)=O)C(=O)N[C@@H](CC(=O)O)C(=O)N[C@@H](Cc1ccccc1)C(=O)N[C@H](C(=O)N[C@@H](CC(N)=O)C(=O)N[C@@H](Cc1c[nH]c2ccccc12)C(=O)N[C@@H](CC(C)C)C(=O)N[C@@H](CC(C)C)C(=O)N[C@@H](C)C(=O)N[C@@H](CCC(N)=O)C(=O)N[C@@H](CCCCN)C(=O)N1CCC[C@H]1C(=O)N[C@@H](CO)C(=O)N[C@@H](CO)C(=O)NCC(=O)N[C@@H](C)C(=O)N1CCC[C@H]1C(=O)N1CCC[C@H]1C(=O)N1CCC[C@H]1C(=O)N[C@@H](CO)C(N)=O)C(C)C)[C@@H](C)CC, the resistin was 1.6 ± 0.1 ng/mL (HF-STZ diabetic mouse, plasma; continuous infusion, 100 nmol/kg/day, 4 weeks).
With COc1cc2c3cc1Oc1c(OC)c(OC)cc4c1[C@@H](Cc1ccc(O)c(c1)Oc1ccc(cc1)C[C@@H]3N(C)CC2)N(C)CC4 the inhibition was over 80% (Zaire ebolavirus; pseudovirus entry; HEK-293T; 10 µM).
With CCOP(=O)(COCCn1cnc(C#N)c1C#N)OCC the IC50 was 37 µg/mL (Zaire ebolavirus; viral replication, inhibitor; Vero; 72 h).
CCCCCCCCCCCCCCCC(=O)N[C@@H](CCC(=O)NCCOCCOCCC(=O)NCCOCCOCCC(=O)NCCCC[C@H](NC(=O)[C@H](CC(=O)O)NC(=O)[C@H](CC(C)C)NC(=O)[C@H](Cc1ccc(O)cc1)NC(=O)[C@H](CCCCN)NC(=O)[C@H](CO)NC(=O)[C@H](Cc1ccc(O)cc1)NC(=O)[C@H](CC(=O)O)NC(=O)[C@H](CO)NC(=O)[C@@H](NC(=O)[C@H](Cc1ccccc1)NC(=O)[C@@H](NC(=O)CNC(=O)[C@H](CCC(N)=O)NC(=O)[C@@H](CO)NC(=O)[C@@H](N)Cc1c[nH]cn1)[C@@H](C)O)[C@@H](C)O)C(=O)N[C@@H](CCCNC(=N)N)C(=O)N[C@@H](CCCNC(=N)N)C(=O)N[C@@H](C)C(=O)N[C@@H](CCC(N)=O)C(=O)N[C@@H](CC(=O)O)C(=O)N[C@@H](Cc1ccccc1)C(=O)N[C@H](C(=O)N[C@@H](CCC(N)=O)C(=O)N[C@@H](Cc1c[nH]c2ccccc12)C(=O)N[C@@H](CC(C)C)C(=O)N[C@@H](CC(C)C)C(=O)N[C@@H](CC(N)=O)C(=O)N[C@H](C(=O)NCC(=O)NCC(=O)N1CCC[C@H]1C(=O)N[C@@H](CO)C(=O)N[C@@H](CO)C(=O)NCC(=O)N[C@@H](C)C(=O)N1CCC[C@H]1C(=O)N1CCC[C@H]1C(=O)N1CCC[C@H]1C(=O)N[C@@H](CO)C(N)=O)[C@@H](C)O)C(C)C)C(=O)O: “serum enzyme activity” 41 ± 7.4 U/L (item: ALT; rhesus monkey, female; subcutaneous, 20 µg/kg once daily, 28 days).
For Cc1cc(Cc2cc(C)cc(C(C)(C)C)c2O)c(O)c(Cc2cc(C)cc(C(C)(C)C)c2O)c1, the IC50 was 1910 nM (Zaire ebolavirus; viral replication, inhibitor; HeLa).
[N-]=[N+]=N[C@]1(CO)O[C@@H](n2ccc(N)nc2=O)C(F)(F)[C@@H]1O gave an EC50 of 330 ± 30 nM (Zaire ebolavirus; viral replication; NCI-H358).
The IC50 of CCN(CC)Cc1cc(Nc2ccnc3cc(I)ccc23)ccc1O is reported as 580 nM and 640 nM (Zaire ebolavirus; viral replication; GFP reporter virus).
With CC[C@@H](C)[C@@H](NC(=O)[C@@H](CCCCN)NC(=O)[C@@H](CCCCN)NC(=O)[C@@H](CC(C)C)NC(=O)[C@@H](Cc1c[nH]c2ccccc12)NC(=O)CN)C(=O)NCC(=O)N[C@H](CCCCN)C(=O)N[C@H](CCCCN)C(=O)N[C@@H](C(=O)N[C@H](CCC(=O)O)C(=O)N[C@H](CCCNC(=N)N)C(=O)N[C@@H](C(=O)NCC(=O)N[C@H](CCC(N)=O)C(=O)N[C@H](Cc1c[nH]cn1)C(=O)N[C@@H](C(=O)N[C@H](CCCNC(=N)N)C(=O)N[C@H](CC(=O)O)C(=O)N[C@H](C)C(=O)N[C@@H](C(=O)N[C@@H](C(=O)N[C@H](CCC(N)=O)C(=O)N[C@@H](C(=O)N[C@@H](C(=O)NCC(=O)N[C@@H](C(=O)N[C@H](C)C(=O)N[C@H](CCC(N)=O)C(=O)N[C@H](CCC(N)=O)C(=O)N[C@H](C)C(=O)N[C@H](C)C(=O)N[C@H](CC(N)=O)C(=O)N[C@@H](C(=O)N[C@H](C)C(=O)N[C@H](C)C(=O)N[C@@H](C(=O)N[C@H](CC(C)C)C(=O)N[C@H](CCCCN)C(N)=O)[C@H](C)O)C(C)C)C(C)C)[C@H](C)CC)[C@H](C)O)[C@H](C)CC)[C@H](C)O)[C@H](C)O)C(C)C)[C@H](C)CC the MIC was 256 µg/mL (≈ 61 µM) (Acinetobacter baumannii; broth microdilution; ATCC 19606, CAMHB).
N#Cc1ncn(C2OC(CO)C(O)C2O)c1C#N (stereo not drawn) gave an IC50 of 18 µg/mL (Zaire ebolavirus; viral replication, inhibitor; Vero; 72 h).
CC[C@H](C)[C@H](NC(=O)[C@@H](NC(=O)[C@H](CCC(N)=O)NC(=O)[C@@H](N)CO)C(C)C)C(=O)N[C@@H](CO)C(=O)N[C@@H](CC(N)=O)C(=O)N1CCC[C@H]1C(=O)N[C@@H](Cc1ccc(O)cc1)C(=O)N[C@@H](Cc1ccc(O)cc1)C(=O)N1CCC[C@H]1C(=O)N[C@@H](Cc1ccccc1)C(=O)N[C@@H](Cc1ccc(O)cc1)C(=O)N[C@@H](Cc1ccc(O)cc1)C(=O)N[C@@H](CO)C(=O)O gave an IC50 of 26600 nM (Zaire ebolavirus; wild type).
For CN1CCN(C(=O)N[C@@H](Cc2ccccc2)C(=O)N[C@H](/C=C/S(=O)(=O)c2ccccc2)CCc2ccccc2)CC1, the IC50 was 0.87 ± 0.06 nM (Zaire ebolavirus; pseudovirus entry; HEK293T; EBOV).
With CCOP(=O)(CCOCn1cnc(C#N)c1C#N)OCC the IC50 was 19 µg/mL (Zaire ebolavirus; viral replication, inhibitor; Vero; 72 h).

Some of these lines once more:
CCCCCCCCCCCCCCCC(=O)N[C@@H](CCC(=O)NCCOCCOCCC(=O)NCCOCCOCCC(=O)NCCCC[C@H](NC(=O)[C@H](CC(=O)O)NC(=O)[C@H](CC(C)C)NC(=O)[C@H](Cc1ccc(O)cc1)NC(=O)[C@H](CCCCN)NC(=O)[C@H](CO)NC(=O)[C@H](Cc1ccc(O)cc1)NC(=O)[C@H](CC(=O)O)NC(=O)[C@H](CO)NC(=O)[C@@H](NC(=O)[C@H](Cc1ccccc1)NC(=O)[C@@H](NC(=O)CNC(=O)[C@H](CCC(N)=O)NC(=O)[C@@H](CO)NC(=O)[C@@H](N)Cc1c[nH]cn1)[C@@H](C)O)[C@@H](C)O)C(=O)N[C@@H](CCCNC(=N)N)C(=O)N[C@@H](CCCNC(=N)N)C(=O)N[C@@H](C)C(=O)N[C@@H](CCC(N)=O)C(=O)N[C@@H](CC(=O)O)C(=O)N[C@@H](Cc1ccccc1)C(=O)N[C@H](C(=O)N[C@@H](CCC(N)=O)C(=O)N[C@@H](Cc1c[nH]c2ccccc12)C(=O)N[C@@H](CC(C)C)C(=O)N[C@@H](CC(C)C)C(=O)N[C@@H](CC(N)=O)C(=O)N[C@H](C(=O)NCC(=O)NCC(=O)N1CCC[C@H]1C(=O)N[C@@H](CO)C(=O)N[C@@H](CO)C(=O)NCC(=O)N[C@@H](C)C(=O)N1CCC[C@H]1C(=O)N1CCC[C@H]1C(=O)N1CCC[C@H]1C(=O)N[C@@H](CO)C(N)=O)[C@@H](C)O)C(C)C)C(=O)O: “serum enzyme activity” 41 ± 7.4 U/L (item: ALT; rhesus monkey, female; subcutaneous, 20 µg/kg once daily, 28 days).
[N-]=[N+]=N[C@]1(CO)O[C@@H](n2ccc(N)nc2=O)C(F)(F)[C@@H]1O gave an EC50 of 330 ± 30 nM (Zaire ebolavirus; viral replication; NCI-H358).
